Published values pooled from the literature.
Protocols differ between the studies behind these lines. “And” joins repeats or separate records; there may be more than shown.
Target: Cytochrome P450 3A4 (CYP3A4, Homo sapiens, UniProt P08684)
Chain of UniProt P08684 (whole entry, looked up): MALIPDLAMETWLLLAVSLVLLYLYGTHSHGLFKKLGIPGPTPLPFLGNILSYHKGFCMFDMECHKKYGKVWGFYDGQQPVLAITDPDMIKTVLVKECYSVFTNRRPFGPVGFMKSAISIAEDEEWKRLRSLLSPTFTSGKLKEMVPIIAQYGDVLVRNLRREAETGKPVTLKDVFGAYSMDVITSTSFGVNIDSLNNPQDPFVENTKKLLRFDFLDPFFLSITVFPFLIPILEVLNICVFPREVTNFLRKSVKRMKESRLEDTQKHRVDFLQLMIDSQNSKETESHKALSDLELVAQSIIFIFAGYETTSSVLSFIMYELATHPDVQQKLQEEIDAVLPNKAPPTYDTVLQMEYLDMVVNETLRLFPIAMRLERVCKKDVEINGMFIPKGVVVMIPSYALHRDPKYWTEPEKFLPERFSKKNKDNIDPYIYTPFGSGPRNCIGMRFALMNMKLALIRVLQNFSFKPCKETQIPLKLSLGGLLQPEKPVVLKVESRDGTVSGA
Action: inhibitor

`C(#Cc1cncc(OC[C@@H]2CCN2)c1)c1ccccc1` gave an IC50 of 9.73 µM (enzyme activity).
`N=C(N)c1cccc(C[C@H](NS(=O)(=O)c2cccc(-c3ccc(Cl)cc3Cl)c2)C(=O)N2CCC(CCN)CC2)c1` gave an IC50 of > 10 µM and 11.8 µM (enzyme activity; testosterone probe).
For `COc1ccc2nc(C)cc(OCC(=O)Nc3ccccc3OC)c2c1`, the IC50 was > 50 µM (enzyme activity; together with: VR substrate).
`Cc1cc(/C=C/C#N)cc(C)c1Oc1nc(NC2CCN(Cc3ccc(S(C)(=O)=O)cc3)CC2)nc2ncccc12` has an IC50 of 5.86 µM (enzyme activity; 10 min).
With `C=CCc1cc2c(c(OC)c1OC)OCO2` the IC50 was 8.9 to 9.2 µM (enzyme activity, fluorescence).
With `C[C@@H](c1ccn(Cc2ccc(Cl)cc2Cl)n1)[C@](O)(Cn1cnnn1)c1ccc(F)cc1F` the IC50 was 2.9 µM (enzyme activity; human, liver microsomes; midazolam probe).
For `Cc1ccc(OCC(=O)N(Cc2cccs2)c2ccn[nH]2)cc1`, the IC50 was 15 µM (enzyme activity; human, liver microsomes; midazolam probe).
The IC50 of `CCC(=O)N(C)c1ccc(Cl)c(Cl)c1` is reported as > 25 µM (enzyme activity; human liver microsomes; 10 min, together with: midazolam 2.5 µM and testosterone 50 µM).
`CCc1ccc([C@@H]2C[C@H](C(F)(F)F)n3ncc(C(=O)NCc4ccc(OC)cc4)c3N2)cc1` has an IC50 of 5 µM (enzyme activity; together with: VG substrate).
`COC(=O)c1ccc2c(c1)NC(=O)/C2=C(\Nc1ccc2c(c1)CCN2C(=O)CN1CCOCC1)c1ccccc1` has an IC50 of 56.8 µM (recombinant enzyme; 10 min, together with: midazolam 2 µM).
For `C[C@@H](c1ccn(Cc2ccc(I)cc2)n1)[C@](O)(Cn1cnnn1)c1ccc(F)cc1F`, the IC50 was 8.04 µM (enzyme activity; human, liver microsomes; midazolam probe).
With `CNc1nc(SC)nc2ccccc12` the IC50 was > 50 µM (enzyme activity; together with: VR substrate).
`c1ccc(C2(CCNC3CCC4(SCCS4)c4ccccc43)CCOC3(CCCC3)C2)nc1` (stereo not shown) has an IC50 of 3.27 µM (enzyme activity; human, liver microsomes; midazolam probe).

Some of these lines once more:
`CCc1ccc([C@@H]2C[C@H](C(F)(F)F)n3ncc(C(=O)NCc4ccc(OC)cc4)c3N2)cc1` has an IC50 of 5 µM (enzyme activity; together with: VG substrate).
The IC50 of `CCC(=O)N(C)c1ccc(Cl)c(Cl)c1` is reported as > 25 µM (enzyme activity; human liver microsomes; 10 min, together with: midazolam 2.5 µM and testosterone 50 µM).
